{"data": "Measurements gathered from unrelated publications", "note": "± marks the error that the study gave."}
{"SMILES": "COc1ccc(C(=O)Nc2cccc(S(N)(=O)=O)c2)cc1OC", "cell line": "HEK293T", "assay": "MTT", "system": "serum-free medium", "conditions": "100 µM, 24 to 48 h", "how to read": "baseline: untreated", "viability": "72 ± 0.2%"}
{"SMILES": "CC(C)Cc1ccc(C(C)C(=O)N/N=C/c2ccc(OCC(=O)N/N=C/c3cccc(O)c3)cc2)cc1 (stereo not drawn)", "cell line": "HEK293", "assay": "MTT", "conditions": "40 µM, 48 h", "viability": "55.2%"}
{"SMILES": "O=S(=O)(O)CC1CSSCC(CS(=O)(=O)O)SS1 (stereo not drawn)", "cell line": "OECM1", "conditions": "50 or 100 µM, 4 d", "viability": "no effect"}
{"SMILES": "CC(C)CCC[C@@H](C)[C@H]1CCC([C@@H]2CC[C@H]3C[C@H](O)CC[C@]3(C)[C@@H]2O)[C@]1(C)CC(=O)O (stereo partly drawn)", "cell line": "HEK293T", "assay": "CellTiter-Blue", "conditions": "10 µM", "viability": "> 100%"}
{"SMILES": "O=C(Cc1c(-c2ccccc2)n[nH]c1-c1ccccc1)NO", "cell line": "SH-SY5Y", "assay": "CytoTox-ONE", "conditions": "30 µM, 24 h, 10% FBS", "viability": "92%"}
{"SMILES": "COc1cccc(/C=N/NC(=O)COc2ccc(/C=N/NC(=O)C(C)c3ccc(CC(C)C)cc3)cc2)c1O (stereo not drawn)", "cell line": "HEK293", "assay": "MTT", "conditions": "10 µM, 48 h", "viability": "64.1%"}
{"SMILES": "Cc1ncsc1-c1ccc(CNC(=O)[C@@H]2C[C@@H](O)CN2C(=O)[C@@H](NC(=O)COCc2cn(CCOCCOCCOc3cc(C(=O)c4cc(Cl)ccc4NS(=O)(=O)c4ccc(C(C)(C)C)cc4)cc[n+]3[O-])nn2)C(C)(C)C)cc1", "cell line": "HEK293T", "conditions": "0.1 to 2500 nM, 14 h", "viability": "not toxic"}
{"SMILES": "CC(C)(C)[C@H](NC(=O)[C@H](CCONC(=N)N)NC(=O)Cc1ccc(CNC(=N)N)cc1)C(=O)N[C@@H](CCONC(=N)N)C(=O)NCc1ccc(C(=N)N)cc1", "cell line": "primary human hepatocytes", "assay": "MTS", "conditions": "up to 100 µM, 24 h", "viability": "no effect"}
{"SMILES": "CC(C)Cc1ccc(C(C)C(=O)N/N=C/c2ccc(OCC(=O)N/N=C/c3c(O)ccc4ccccc34)cc2)cc1 (stereo not drawn)", "cell line": "HEK293", "assay": "MTT", "conditions": "80 µM, 48 h", "viability": "28.6%"}
{"SMILES": "COc1ccc([C@@H]2CC(=O)c3c(O)cc(O[C@@H]4O[C@H](CO[C@@H]5O[C@@H](C)[C@H](O)[C@@H](O)[C@H]5O)[C@@H](O[C@H]5O[C@H](CO)[C@@H](O)[C@H](O)[C@H]5O)[C@H](O)[C@H]4O)cc3O2)cc1O", "cell line": "MRC5", "assay": "cell growth or viability, MTS", "conditions": "150 µg/mL, 48 h", "viability": "48.4%"}
{"SMILES": "CC(C)Cc1ccc(C(C)C(=O)N/N=C/c2ccc(OCC(=O)N/N=C/c3ccc([N+](=O)[O-])cc3)cc2)cc1 (stereo not drawn)", "cell line": "HEK293", "assay": "MTT", "conditions": "80 µM, 48 h", "viability": "47.2%"}
{"SMILES": "O=C(C=Cc1ccc(O)c(OC(F)(F)F)c1)C1=C(C=Cc2ccc(O)c(OC(F)(F)F)c2)OCC1", "cell line": "SH-SY5Y", "assay": "MTT", "conditions": "0.9 µM, 24 h", "viability": "94.1 ± 3.4%"}
{"note": "A few entries again:"}
{"SMILES": "COc1ccc([C@@H]2CC(=O)c3c(O)cc(O[C@@H]4O[C@H](CO[C@@H]5O[C@@H](C)[C@H](O)[C@@H](O)[C@H]5O)[C@@H](O[C@H]5O[C@H](CO)[C@@H](O)[C@H](O)[C@H]5O)[C@H](O)[C@H]4O)cc3O2)cc1O", "cell line": "MRC5", "assay": "cell growth or viability, MTS", "conditions": "150 µg/mL, 48 h", "viability": "48.4%"}
